# Results gathered from unrelated publications.
# Every numbered part comes from another study and shows a few of its results, in no order.
# UniProt Q9WVH4, sequence (31-263, looked up): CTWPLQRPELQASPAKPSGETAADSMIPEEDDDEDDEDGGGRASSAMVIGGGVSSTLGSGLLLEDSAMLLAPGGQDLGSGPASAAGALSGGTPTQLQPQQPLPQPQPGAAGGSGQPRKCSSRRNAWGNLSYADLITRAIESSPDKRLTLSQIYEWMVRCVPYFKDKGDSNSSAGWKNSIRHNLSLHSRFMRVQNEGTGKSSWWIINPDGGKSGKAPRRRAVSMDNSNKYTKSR

# Block 1
# Target: Replicase polyprotein 1ab, polymerase (rep, Severe acute respiratory syndrome coronavirus 2, UniProt P0DTD1)
# Observed: enzyme activity
# Mode: inhibitor
# Tested at: 20 µM
Compound,inhibition [%]
CC(=O)NC(Cc1ccccc1)C(=O)O (stereo not drawn),0.66
Cc1cccc(CC(=O)N2CCc3c2ccc(-c2cn(C)c4ncnc(N)c24)c3F)n1,-3.41
C[C@@H]1CC[C@@]2(OC1)O[C@H]1C[C@H]3[C@@H]4CC=C5C[C@@H](O)CC[C@]5(C)[C@H]4CC[C@]3(C)[C@H]1[C@@H]2C,-5.58
CN(C)CC[C@@H](c1ccc(Cl)cc1)c1ccccn1,6.1
CC1=NN(c2ccc(C(=O)O)cc2)C(=O)/C1=C\c1ccc(-c2cc(C)c(C)cc2[N+](=O)[O-])o1,0.99
CC(C)(C)c1ccc(CN2CCN(C(c3ccccc3)c3ccc(Cl)cc3)CC2)cc1 (stereo not drawn),-2.87
Nc1ncnc2c1ncn2[C@@H]1O[C@H](COP(=O)(O)OP(=O)(O)OP(=O)(O)OP(=O)(O)OC[C@H]2O[C@@H](n3cnc4c(N)ncnc43)[C@H](O)[C@@H]2O)[C@@H](O)[C@H]1O,-8.03
N[C@@H](CSS(=O)(=O)O)C(=O)O,6.8
O=C(O)CCc1cc(C(=O)c2ccc(OC3CCCC3)cc2O)ccc1OCc1ccc2c(=O)[nH]oc2c1,-3.66
Cc1cccc(N(C)C(=S)Oc2ccc3ccccc3c2)c1,24.4
O=c1ccc2ccc(O)c(O)c2o1,0.07
Cc1nn(C)c2c1C(c1ccc(C(F)(F)F)cc1)C(C#N)=C(N)O2 (stereo not drawn),6.56
CCCCCCCC(=O)N[C@H](CN1CCCC1)[C@H](O)c1ccc2c(c1)OCCO2,-7.72
CCN(CC)CCOCCOC(=O)C1(c2ccccc2)CCCC1,19.5
C[C@@H]1O[C@@H](O[C@@H]2[C@@H](O)[C@H](OCCc3ccc(O)c(O)c3)O[C@H](CO)[C@H]2OC(=O)/C=C/c2ccc(O)c(O)c2)[C@H](O)[C@H](O)[C@H]1O,28.4
NC(=O)CC[C@H](N)C(=O)O,-2.24
O=[N+]([O-])c1cccc2c(Br)[nH]nc12,-4.99
CC(C)CC(N(C)C)C1(c2ccc(Cl)cc2)CCC1 (stereo not drawn),-0.36
CC(C)(C)c1cc(C(=O)/C(C#N)=N/Nc2cccc(Cl)c2)no1,0.99
COC(=O)c1ccc2c(c1)NC(=O)/C2=C(\Nc1ccc(N(C)C(=O)CN2CCN(C)CC2)cc1)c1ccccc1,-5.49
Cc1ncc(OC[C@@]2(c3cccc(F)c3)C[C@H]2C(=O)Nc2ccc(F)cn2)c(C)n1,-3.33
Cc1nc2cnc3ccc(C#Cc4cccnc4)cc3c2n1-c1ccc(C(C)(C)C#N)cc1,0.87
N#Cc1cccc(-c2nc(-c3cccnc3)no2)c1,-0.57
Cc1cn([C@H]2C=C[C@@H](CO)O2)c(=O)[nH]c1=O,-5.5
CC(C)OC(=O)[C@H](C)N[P@](=O)(CO[C@H](C)Cn1cnc2c(N)ncnc21)Oc1ccccc1,-3.89

# Block 2
# Target: Fragile X messenger ribonucleoprotein 1, C-terminal low-complexity region (Fmr1, Mus musculus, UniProt P35922)
# Technique: RNA Bind-n-Seq
# Form: RNA
# Matrix: in vitro
# Tested at: 200 nM
# Notes: whole 134-nt RNA, ends assumed
# Together with: 150 mM LiCl
# Baseline: input library
# Direction: higher = stronger binding
# All molecules: 7-deaza-guanosine replaces G
Oligonucleotide,log2 enrichment
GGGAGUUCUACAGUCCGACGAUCCACAGACAACACGCACCCACACAGACACAGAGGGAAGGGGGUGGGAUGGGGACAGGGUGCACAGCAGGGCGGGGUAGGACCCCAGCCCCUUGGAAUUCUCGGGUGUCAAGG,-0.95
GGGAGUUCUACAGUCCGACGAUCUGGGAGGUGGAUUUUGUUUAUUUUUUUAGCUCAUUUCCAGGGGUGGGAAUUCUUUUUUAAUAUGUGUCAUGAAUAAAGUUGUUUUUGAAAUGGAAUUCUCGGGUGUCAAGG,0.0907
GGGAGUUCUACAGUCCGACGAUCGUCCUGUGCUACACAUCGUAUGUACCGAAUCGGGGAAAAGGGGAAAAGGGAAAAGGGGAAAGUAUUAUGUUACGCCGUUCGGAUCUGCACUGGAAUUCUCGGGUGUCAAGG,0.913
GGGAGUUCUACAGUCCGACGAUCUCCUGUGCUACACAUCGUAUGUACCGAAUCGGGCCCCCCGGGGCCCCCCGGCCCCCCGGAAAGUAUUAUGUUACGCCGUUCGGAUCUGCAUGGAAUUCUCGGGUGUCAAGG,-0.438
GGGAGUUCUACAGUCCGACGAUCCAAGUCCUGUGCUACACAUCGUAUGUACCGAAUCGGCCCCGGCCCCGGGCCCCGGAAAGUAUUAUGUUACGCCGUUCGGAUCUGCACUUCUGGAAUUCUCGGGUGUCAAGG,-1.56
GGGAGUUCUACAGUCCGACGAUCACCAUGCAGGUGGGCAUCUUUGGGAAGUGGGGCAAGGGGGGGAUAGGGAGGGGGGUAACACUUUGGGAACAGGUGUUCCCAGGUCGUUUCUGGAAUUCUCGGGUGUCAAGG,1.4
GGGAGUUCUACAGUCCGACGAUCUCCUGUGCUACACAUCGUAUGUACCGAAUCGGGAAAAAGGGAAAAAGGGGAAAAAGGGGAAAGUAUUAUGUUACGCCGUUCGGAUCUGCAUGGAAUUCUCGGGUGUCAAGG,-0.72
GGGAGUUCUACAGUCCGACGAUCAUGAAGAUGAAGAAGAGGAUGAUGAGGACGAGGAUGACGACGACGACGAAGAUGAUGAAGAUGAUGAUGAUGAAGAUGAUGAGGAGGAGGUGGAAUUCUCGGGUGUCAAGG,1.34

# Block 3
# Cell line: HEK-293T/ACE2
# Tested at: concentration not given
# Time: 16 (unit not given)
# Baseline: vehicle
Structure (SMILES),viability [%]
CO[C@@]1(NC(=O)Cc2cccs2)C(=O)N2C(C(=O)O)=C(COC(N)=O)CS[C@@H]21,102
CC(C)(C)NCC(O)c1cc(O)cc(O)c1 (stereo not drawn),105
C=CC[N+]1([C@H]2C[C@H]3[C@@H]4CC[C@H]5C[C@H](O)[C@@H](N6CCOCC6)C[C@]5(C)[C@H]4CC[C@]3(C)[C@H]2OC(C)=O)CCCC1,102

# Block 4
# Target: Replicase polyprotein 1ab, main protease (rep, Severe acute respiratory syndrome coronavirus 2, UniProt P0DTD1)
# Observed: enzyme activity
# Mode: inhibitor
# Tested at: 20 µM
# Notes: hit confirmation
SMILES,inhibition [%]
CC1(C)C(=O)N=C2C1=C(O)C(=O)c1ccccc12,36
O=C(O)c1c(Cl)c(Cl)c(Cl)c(Cl)c1-c1c2cc(I)c(=O)c(I)c-2oc2c(I)c(O)c(I)cc12,122
Nc1ccc(O)c2ncccc12,111

# Block 5
# Target: TAR DNA-binding protein 43, full length, His tag (TARDBP, Homo sapiens, UniProt Q13148, residues 1-414)
# Technique: RNA Bind-n-Seq
# Form: RNA
# Matrix: in vitro
# Tested at: 20 nM
# Notes: 6-mer, flanks averaged, single round
# Together with: 150 mM KCl
# Baseline: input library
# Direction: higher = stronger binding
Oligonucleotide,6-mer enrichment (R)
CUCAGU,0.625
UAUGGG,1.96
UGGUGU,1.41
ACUAAU,0.663
GUAUAC,0.653
GGUCCC,0.857
GCAGUU,0.808
GGGUUG,3.54

# Mixed results
# Technique: protein-binding microarray
# Form: hairpin DNA
# Matrix: in vitro
# Tested at: not given
# Notes: whole hairpin DNA, median over replicate spots
# Baseline: not given
# Direction: higher = stronger binding
# CREB1 full length: Cyclic AMP-responsive element-binding protein 1, full length (CREB1, Homo sapiens, UniProt P16220, residues 1-327)
# UniProt P16220, sequence (whole entry, looked up): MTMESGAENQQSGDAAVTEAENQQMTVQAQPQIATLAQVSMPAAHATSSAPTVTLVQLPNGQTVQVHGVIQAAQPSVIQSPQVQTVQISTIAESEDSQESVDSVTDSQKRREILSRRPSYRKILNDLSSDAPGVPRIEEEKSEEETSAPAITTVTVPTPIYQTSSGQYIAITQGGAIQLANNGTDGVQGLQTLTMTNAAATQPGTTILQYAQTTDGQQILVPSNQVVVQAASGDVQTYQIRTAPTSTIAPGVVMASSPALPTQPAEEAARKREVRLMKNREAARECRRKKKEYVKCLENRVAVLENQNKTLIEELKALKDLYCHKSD
Oligonucleotide,target,median fluorescence [a.u.]
GAGGCCCAACCGCACGAGCCTCCTGGCTCGTGCGGTTGGGCCTCACACTC (5mC at 15 29),"Runt-related transcription factor 1, full length (RUNX1, Homo sapiens, UniProt Q01196-8, residues 1-480)",3260
GAGGCCATGTCGCCAACGCCTCCTGGCGTTGGCGACATGGCCTCACACTC,"FOXO3, forkhead domain (mouse, UniProt Q9WVH4, residues 31-263)",4920
GAGGCCGACGACGTCGTGCCTCCTGGCACGACGTCGTCGGCCTCACACTC (5mC at 15 29 35),CREB1 full length,3310
GAGGCCGACGACGTCGTGCCTCCTGGCACGACGTCGTCGGCCTCACACTC (5mC at 9 15 29),CREB1 full length,7080

# A few entries again (block 1):
Compound,inhibition [%]
CCCCCCCC(=O)N[C@H](CN1CCCC1)[C@H](O)c1ccc2c(c1)OCCO2,-7.72
CC(C)CC(N(C)C)C1(c2ccc(Cl)cc2)CCC1 (stereo not drawn),-0.36
CC1=NN(c2ccc(C(=O)O)cc2)C(=O)/C1=C\c1ccc(-c2cc(C)c(C)cc2[N+](=O)[O-])o1,0.99
